{"data": "Results pooled from the literature", "note": "Compare with care: the assays were run in different laboratories. “And” joins repeats or separate records; there may be more than shown. Numbers after ± are the reported error."}
{"Compound": "O=C1NCCc2nc(OCc3cccc(F)c3)ccc21", "assay": "measured: Catalepsy", "test system": "Sprague-Dawley rat male", "conditions": "oral, 100 mg/kg, 30 min", "scale": "direction not given", "endpoint": "Irwin test score", "result": 0}
{"Compound": "CC(C)C[C@H](NC(=O)[C@@H](Cc1c[nH]c2ccccc12)NC(=O)[C@H](Cc1ccc(O)cc1)NC(=O)[C@H](CO)NC(=O)[C@H](Cc1c[nH]c2ccccc12)NC(=O)[C@H](Cc1c[nH]cn1)NC(=O)[C@@H]1CCC(=O)N1)C(=O)N[C@@H](CCCNC(=N)N)C(=O)N1CCC[C@H]1C(=O)NCC(N)=O", "test system": "Chinese CPP children, boys", "conditions": "intramuscular, 22.5 mg, 12 months, day 1, month 6", "endpoint": "patients, serious adverse events", "result": "0%"}
{"Compound": "N#Cc1ccc2c(c1)[C@H]1CCCN(C(=O)c3ccc4[nH]cnc4c3)[C@H]1C2", "test system": "human, female", "conditions": "80 mg, day 7", "endpoint": "androstenedione level", "result": "9.1 nmol/L"}
{"Compound": "O=C1CCc2ccc(OCCCCN3CCN(c4cccc(Cl)c4Cl)CC3)cc2N1", "test system": "CYP2D6 normal metabolizers", "conditions": "concentration not given, genotype-based phenotype, long-acting oral or depot", "endpoint": "extrapyramidal symptom frequency", "result": "7.3%"}
{"Compound": "COc1ccc([C@@H](O)c2cc(-c3ncnc4cc(N5CCOCC5)ccc34)c(F)cc2Cl)nn1", "test system": "locally advanced rectal cancer patients", "conditions": "100 mg, together with: capecitabine and radiotherapy", "endpoint": "drug-related lymphocyte count decrease", "result": "33%"}
{"Compound": "CCCC1CCC(c2ccc(OCC)c(F)c2F)CC1 (stereo not shown)", "test system": "rat, fetus", "conditions": "5000 ng/mL in perfusate, high dose, mixture of 21 LCMs", "endpoint": "median fetal accumulation", "result": "1.42 ng/g"}
{"Compound": "C=CC[C@@H]1/C=C(\\C)C[C@H](C)C[C@H](OC)[C@H]2O[C@@](O)(C(=O)C(=O)N3CCCC[C@H]3C(=O)O[C@H](/C(C)=C/[C@@H]3CC[C@@H](O)[C@H](OC)C3)[C@H](C)[C@@H](O)CC1=O)[C@H](C)C[C@@H]2OC", "test system": "Wistar Kyoto rat, male, plasma", "conditions": "ip, 0.5 mg/kg/day, day 28, at sacrifice", "endpoint": "plasma HCO3- level", "result": "25.9 ± 1.2 mmol/L"}
{"Compound": "CN1CCC[C@H](CN2c3ccccc3Sc3ccccc32)C1.Cl", "test system": "ICR mouse female fasted, heart", "conditions": "oral, 16 mg/kg", "endpoint": "Tmax", "result": "30 min"}
{"Compound": "CCc1cc(C(=O)NC)c2nccc(N3CCc4c(cc(Cn5ccnc5)cc4-c4cn(C)nc4C(F)(F)F)C3=O)c2c1", "test system": "Sprague Dawley rat", "conditions": "oral, 100 mg/kg twice daily, day 6, 7-day toxicology study", "endpoint": "body weight", "result": "235 ± 5.9 g"}
{"Compound": "Cn1cc(Nc2nccc(-c3ccc4c(c3)CN(C3COC3)CC[C@H]4NC(=O)c3cn(C(C)(C)C)nn3)n2)cn1", "test system": "human, whole blood", "conditions": "150 mg twice daily, day 14", "scale": "relative to: pre-dose baseline", "endpoint": "NKT cell count change", "result": "-7.06%"}
{"Compound": "CC1(C)C(/C=C/C2=C(Cl)C(=C/C=C3\\N(CCCCCC(=O)O)c4ccccc4C3(C)C)/CCC2)=[N+](CCCCCC(=O)O)c2ccccc21", "test system": "water", "endpoint": "molar absorption coefficient", "result": "57500 M⁻¹ cm⁻¹"}
{"Compound": "c1ccc(C2CCN(c3nc(-c4cnn5cccnc45)nc4ccccc34)C2)nc1 (stereo not shown)", "test system": "Japanese Pharmacopoeia disintegration test solution 2", "conditions": "pH 6.8", "endpoint": "kinetic solubility", "result": "83 µg/mL"}
{"Compound": "O=C1CCc2cc(OCCCCc3nnnn3C3CCCCC3)ccc2N1", "tested on": "Nedd8-cullin1 interaction", "assay": "neddylation, AlphaScreen", "conditions": "100 µM", "endpoint": "inhibition", "result": "11.2%"}
{"Compound": "CSc1ccccc1C(=O)NCCn1cc(C(=O)NCc2cccc(C)n2)c(=O)c2cc3c(cc21)OC(F)(F)O3", "test system": "Sprague-Dawley rat, male, plasma", "conditions": "intravenous, 20 mg/kg of parent drug", "endpoint": "Cmax", "result": "1690 ± 166 ng/mL"}
{"Compound": "N=C(N)NCCN1CCCCCCC1", "tested on": "Nedd8-cullin1 interaction", "assay": "neddylation, AlphaScreen", "conditions": "100 µM", "endpoint": "inhibition", "result": "-41.3%"}
{"Compound": "CCN1/C(=C/C(C)=O)Sc2ccc(F)cc21", "test system": "cynomolgus monkey", "conditions": "oral, 30 mg/kg, 4 h post-dose", "endpoint": "QTc interval (Bazett)", "result": "329 ± 11 ms"}
{"Compound": "CNC(=O)c1ccc(-c2cnc3ncc(Cc4ccc5ncccc5c4)n3n2)cc1F", "test system": "healthy human subjects", "conditions": "oral, 400 mg, Dizziness, all grades, all causality, together with: rifampicin 600 mg/day", "endpoint": "subjects with adverse event", "result": "7.7%"}
{"Compound": "O=C(Nc1nc2cccc(-c3ccc(CN4CCS(=O)(=O)CC4)cc3)n2n1)C1CC1", "assay": "measured: diarrhoea", "test system": "human rheumatoid arthritis patients", "conditions": "oral, 30 mg once daily, 4 weeks, regardless of relatedness", "endpoint": "treatment-emergent adverse events", "result": "5.9%"}
{"Compound": "CCc1c(-c2ccccc2)c(-c2ccccc2)nn1-c1ccccc1-c1cccc(OCC(=O)O)c1", "test system": "Sprague-Dawley rat, heart homogenate", "conditions": "oral, 10 mg/kg, 1 h", "endpoint": "concentration", "result": "446 ng/mL and 535 ng/mL"}
{"Compound": "C[C@@H](O)[C@H](NC(=O)c1ccc(-c2ccccc2)cc1)C(=O)NCC1(C)NC(=O)NC1=O (stereo partly shown)", "test system": "aqueous buffer", "conditions": "pH 7.4", "endpoint": "thermodynamic solubility", "result": "3.23 mM"}
{"Compound": "COc1cc2nccc(Oc3ccc(NC(=O)c4cc5c(n(-c6ccccc6)c4=O)CCCC5=O)nc3)c2cc1OC", "test system": "relapsed or refractory AML", "conditions": "oral, 10 mg once daily", "endpoint": "grade ≥3 Syncope patients", "result": "14.3%"}
{"Compound": "O=C(N[C@H](Cc1c[nH]c2ccccc12)C(=O)Nc1ccncc1)c1ccc(-c2ccc(F)c(C(F)(F)F)c2)cc1F", "test system": "Swiss Webster mouse, female, lung", "conditions": "oral, 50 mg/kg, 8 h, 20% HPβCD vehicle", "endpoint": "concentration", "result": "21.4 µM"}
{"note": "Repeated from above:"}
{"Compound": "C[C@@H](O)[C@H](NC(=O)c1ccc(-c2ccccc2)cc1)C(=O)NCC1(C)NC(=O)NC1=O (stereo partly shown)", "test system": "aqueous buffer", "conditions": "pH 7.4", "endpoint": "thermodynamic solubility", "result": "3.23 mM"}
